Assay results pooled from the literature.
A part holds a random share of what one study measured. Substitutions count along the parent as printed.

Sample 1
Target: RING finger protein unkempt homolog, zinc fingers 1-6, GST-SBP tag (UNK, Homo sapiens, UniProt Q9C0B0, residues 30-357)
UniProt Q9C0B0, sequence (30-357, looked up): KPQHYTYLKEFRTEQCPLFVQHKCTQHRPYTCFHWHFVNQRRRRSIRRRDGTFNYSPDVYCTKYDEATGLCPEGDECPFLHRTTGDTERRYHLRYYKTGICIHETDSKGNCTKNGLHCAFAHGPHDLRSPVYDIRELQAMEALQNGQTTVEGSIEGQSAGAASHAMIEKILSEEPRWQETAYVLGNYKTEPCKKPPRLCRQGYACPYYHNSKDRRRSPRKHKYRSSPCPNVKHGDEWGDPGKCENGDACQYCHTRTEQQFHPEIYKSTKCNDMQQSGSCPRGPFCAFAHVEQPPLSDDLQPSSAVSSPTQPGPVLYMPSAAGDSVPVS
Method: RNA Bind-n-Seq
Molecule type: RNA
Sample: in vitro
Tested at: not given
Setting: RNA with constant flanks, ends assumed
Relative to: input RNA pool
Direction: higher = stronger binding
`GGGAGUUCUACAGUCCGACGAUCGCCCGCCGUCCCGACCCCAGCCCCACCCAAGAUGUCAGAGGAUCUAGCAAAACAGUUGGCCCGCUACAAAGCUCAACUCCAGCAAGUAGAAGCUGCCCUUUCUGGAAAUGGAGAAAAUGACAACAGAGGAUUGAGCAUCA` has a bound/input enrichment of 0.22 ratio.
The bound/input enrichment of `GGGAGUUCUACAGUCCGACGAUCAUCUAAACUUAGAUGGAGUUGGUCCAAUGAGGGAACAUCUGGGUUAUGCCUUUUUUAAAGCCGCUUUCCGGAACUGUCAGCAUGUUGUUGUUGAAGUGUGGAGCUGUAACUCUGCGUGGACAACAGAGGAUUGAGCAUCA` is reported as 0.209 ratio.
`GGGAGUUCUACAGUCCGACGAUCAGCUUGGAUUCUAAGGCGAAUAUUGUACAUGGUCUGUCAGUCUUGGAAAUCUGUCUUAUAACCGCAAUGAAACAUUUAAAUGACAUAUAUGAAGAGGAGCCCUUUAAUUUUCAAAUGGUGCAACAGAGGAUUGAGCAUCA` gave a bound/input enrichment of 0.645 ratio.
For `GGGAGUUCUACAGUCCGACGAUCAGCACUGAUCUGGCUGUAUACUGAUCCAUCACUAACCUGUUUUCUAGGACCCAGCGUAUGCCGCAUUUGUAUUGCAGUUUCCCUGGCUUACUUGUGUUUUGCACUGAUGAAUUUUGACAGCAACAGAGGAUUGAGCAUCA`, the bound/input enrichment was 0.151 ratio.
For `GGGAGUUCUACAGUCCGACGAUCAUAUCUUUUGUUUUGGCUUGGUUUGAAGAAGGUGAAGAAACAAUUACAGCCUUUGCCGAACCUUUUGUAAUUUUACUCAUAUUAGUAGCCAAUGCAAUUGUGGGUGUAUGGCAGGAAAGACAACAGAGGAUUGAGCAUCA`, the bound/input enrichment was 0.631 ratio.
With `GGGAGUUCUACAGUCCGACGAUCCCUGCCUUCUCAUCUUUAUAGUGCCACGAUUUAUACAGUCCUGUGUCUGACCUGUCAUUUCACCGCCUGCAGUUCUUGCCAUUGGCACACUUAGAUUUGUCUUCACCCACCAGCUUCGUUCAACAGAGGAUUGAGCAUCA` the bound/input enrichment was 0.587 ratio.
For `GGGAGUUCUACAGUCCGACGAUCAGGUUUCCGGUUCCGGUGUAACGUUCGGGCUCCGUCUCAGGGGCUGAAGUUUGUGAGGUGCCGUAUUGAGUCCUGUUUGAGCUAUUGUUCUCUUUUUCCUGAAAAAUGGCACUGUCAAAGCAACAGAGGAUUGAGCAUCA`, the bound/input enrichment was 0.144 ratio.
`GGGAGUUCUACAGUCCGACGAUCACUCCCCUCCCUCUAACAGCAGGCUGUGUGGGUUUCAAUUCCCAUCCUUCCCACCCCGGCCCGGUGUCGUCCACCCUGUAUCCUGUGUCUGAGUGUGUGUGGGGGGGUUCUGUACUAAUUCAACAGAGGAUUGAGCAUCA` has a bound/input enrichment of 0.296 ratio.

Sample 2
Target: CCND2, cyclin fold, Cln2 fusion (human)
Method: yeast growth competition, sequencing
Sample: yeast
Setting: weak parent motif
Relative to: not given
Direction: higher = stronger binding
Starting sequence: SAMHD1 docking peptide (human); ASKSRVQLFKDDP
`Q7K` — result for “normalised enrichment score”: 0.258.
For `F9E`, “normalised enrichment score” read 0.0389.
Under “normalised enrichment score”, `D11T` is recorded as 0.795.
`D11C` — result for “normalised enrichment score”: 0.346.
`K3A` — result for “normalised enrichment score”: 0.526.
For `V6I`, “normalised enrichment score” read -0.36.
Under “normalised enrichment score”, `L8R` is recorded as -0.0412.
Under “normalised enrichment score”, `D12Q` is recorded as -0.0748.
`V6F` — result for “normalised enrichment score”: -0.0911.

Sample 3
Target: Histone acetyltransferase KAT6A, winged helix 1, GST fusion (KAT6A, Homo sapiens, UniProt Q92794, residues 1-85)
Method: protein binding microarray
Molecule type: double-stranded DNA, one strand shown
Sample: in vitro
Tested at: not given
Setting: 8-mer, flanks averaged, mean of 2 arrays, mostly near background
Relative to: not given
Direction: higher = stronger binding
Target sequence (chain): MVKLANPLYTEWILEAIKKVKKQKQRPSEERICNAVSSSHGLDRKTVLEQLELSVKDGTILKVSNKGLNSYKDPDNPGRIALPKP
For `GATAGTAA`, the E-score was -0.048.
With `CATTAGCG` the E-score was 0.323.
With `CTTGCGCC` the E-score was 0.36.
`GGGAGTGA` gave an E-score of -0.0433.
`AGGCAACG` has an E-score of -0.0709.
For `CTGATCTC`, the E-score was -0.112.
With `GGTGAGAA` the E-score was -0.115.
With `ATGCTGTG` the E-score was -0.176.
`GCCAGCGA` gave an E-score of 0.0727.
The E-score of `GCCATCAC` is reported as 0.0938.
`AGGTTTAC` has an E-score of -0.124.
For `ATGTGTAC`, the E-score was -0.0559.
With `ATGACAAC` the E-score was -0.146.

Mixed results
With `PhoQ, residues 284 288 289 292 302 303 SIHMAM` the fold induction was 8.36 (PhoP, residues 12 14 15 18 19 SMASL (Escherichia coli, UniProt P23836); Sort-seq, refers to: YFP reporter; E. coli; PhoQ-PhoP variant library, with: 10 µM Mg2+; relative to: high Mg2+ state, higher = stronger signaling).

A few entries again (sample 1):
`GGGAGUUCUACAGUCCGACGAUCGCCCGCCGUCCCGACCCCAGCCCCACCCAAGAUGUCAGAGGAUCUAGCAAAACAGUUGGCCCGCUACAAAGCUCAACUCCAGCAAGUAGAAGCUGCCCUUUCUGGAAAUGGAGAAAAUGACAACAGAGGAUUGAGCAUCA` has a bound/input enrichment of 0.22 ratio.
For `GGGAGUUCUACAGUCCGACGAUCAGGUUUCCGGUUCCGGUGUAACGUUCGGGCUCCGUCUCAGGGGCUGAAGUUUGUGAGGUGCCGUAUUGAGUCCUGUUUGAGCUAUUGUUCUCUUUUUCCUGAAAAAUGGCACUGUCAAAGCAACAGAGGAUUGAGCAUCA`, the bound/input enrichment was 0.144 ratio.
